Published values from different studies.
Lines come from different studies, so protocols differ. “And” joins repeats or separate records; there may be more than shown. ± marks the error that the study gave.
PFF0160c E182D: Dihydroorotate dehydrogenase (quinone), mitochondrial (PFF0160c, Plasmodium falciparum, UniProt Q08210, E182D)
ACHE: Acetylcholinesterase (ACHE, Homo sapiens, UniProt P22303)
UniProt O75582, sequence (whole entry, looked up): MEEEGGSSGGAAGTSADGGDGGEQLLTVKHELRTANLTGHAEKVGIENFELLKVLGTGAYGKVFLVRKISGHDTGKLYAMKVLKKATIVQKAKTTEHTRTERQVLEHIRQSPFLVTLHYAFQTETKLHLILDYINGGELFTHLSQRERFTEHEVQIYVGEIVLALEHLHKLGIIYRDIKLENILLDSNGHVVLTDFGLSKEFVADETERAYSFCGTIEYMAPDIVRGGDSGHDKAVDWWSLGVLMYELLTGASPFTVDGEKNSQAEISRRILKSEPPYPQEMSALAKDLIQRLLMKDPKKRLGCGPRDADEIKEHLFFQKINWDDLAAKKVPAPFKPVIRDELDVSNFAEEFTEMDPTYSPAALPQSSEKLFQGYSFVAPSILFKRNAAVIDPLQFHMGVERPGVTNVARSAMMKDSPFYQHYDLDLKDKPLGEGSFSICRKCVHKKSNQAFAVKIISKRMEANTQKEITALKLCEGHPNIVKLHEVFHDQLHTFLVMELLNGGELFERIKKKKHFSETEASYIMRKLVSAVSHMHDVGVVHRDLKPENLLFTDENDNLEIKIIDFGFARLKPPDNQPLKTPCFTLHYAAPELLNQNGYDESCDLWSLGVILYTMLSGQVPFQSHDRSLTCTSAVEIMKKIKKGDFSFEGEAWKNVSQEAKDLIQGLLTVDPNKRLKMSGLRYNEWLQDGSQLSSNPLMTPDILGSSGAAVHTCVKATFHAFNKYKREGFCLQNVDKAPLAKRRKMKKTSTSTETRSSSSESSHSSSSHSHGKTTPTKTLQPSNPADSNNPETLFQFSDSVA
UniProt P22303, sequence (whole entry, looked up): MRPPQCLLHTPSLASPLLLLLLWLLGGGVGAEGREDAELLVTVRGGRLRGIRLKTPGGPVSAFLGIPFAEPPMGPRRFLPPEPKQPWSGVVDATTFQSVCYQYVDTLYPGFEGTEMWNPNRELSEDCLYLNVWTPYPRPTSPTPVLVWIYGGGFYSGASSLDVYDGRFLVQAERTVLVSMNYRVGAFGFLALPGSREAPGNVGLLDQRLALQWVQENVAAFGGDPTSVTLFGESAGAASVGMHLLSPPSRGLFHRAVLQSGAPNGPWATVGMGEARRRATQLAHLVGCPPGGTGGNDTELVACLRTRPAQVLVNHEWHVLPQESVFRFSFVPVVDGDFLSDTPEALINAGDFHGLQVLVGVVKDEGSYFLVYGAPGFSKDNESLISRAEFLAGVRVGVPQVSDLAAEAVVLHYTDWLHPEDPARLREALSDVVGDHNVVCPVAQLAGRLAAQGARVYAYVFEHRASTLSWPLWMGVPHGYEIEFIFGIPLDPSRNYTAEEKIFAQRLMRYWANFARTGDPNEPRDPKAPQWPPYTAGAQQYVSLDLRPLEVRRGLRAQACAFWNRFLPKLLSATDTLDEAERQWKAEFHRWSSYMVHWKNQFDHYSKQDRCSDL
UniProt P0A7E5, sequence (whole entry, unmodified, looked up): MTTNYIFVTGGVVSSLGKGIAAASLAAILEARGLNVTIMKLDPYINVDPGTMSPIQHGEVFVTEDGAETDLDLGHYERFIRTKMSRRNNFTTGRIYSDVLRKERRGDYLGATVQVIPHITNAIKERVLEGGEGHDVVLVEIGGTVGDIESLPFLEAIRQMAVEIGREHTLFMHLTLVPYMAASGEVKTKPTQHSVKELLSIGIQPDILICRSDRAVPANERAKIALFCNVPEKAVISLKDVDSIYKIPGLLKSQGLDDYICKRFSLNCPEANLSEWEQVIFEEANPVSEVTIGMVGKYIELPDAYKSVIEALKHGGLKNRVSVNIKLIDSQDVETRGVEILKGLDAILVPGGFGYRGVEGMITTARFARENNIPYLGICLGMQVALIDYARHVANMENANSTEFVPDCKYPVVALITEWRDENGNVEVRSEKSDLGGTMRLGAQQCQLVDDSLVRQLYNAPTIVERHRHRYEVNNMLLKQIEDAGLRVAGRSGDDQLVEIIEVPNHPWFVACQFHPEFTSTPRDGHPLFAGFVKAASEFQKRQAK
UniProt Q9H228, sequence (whole entry, looked up): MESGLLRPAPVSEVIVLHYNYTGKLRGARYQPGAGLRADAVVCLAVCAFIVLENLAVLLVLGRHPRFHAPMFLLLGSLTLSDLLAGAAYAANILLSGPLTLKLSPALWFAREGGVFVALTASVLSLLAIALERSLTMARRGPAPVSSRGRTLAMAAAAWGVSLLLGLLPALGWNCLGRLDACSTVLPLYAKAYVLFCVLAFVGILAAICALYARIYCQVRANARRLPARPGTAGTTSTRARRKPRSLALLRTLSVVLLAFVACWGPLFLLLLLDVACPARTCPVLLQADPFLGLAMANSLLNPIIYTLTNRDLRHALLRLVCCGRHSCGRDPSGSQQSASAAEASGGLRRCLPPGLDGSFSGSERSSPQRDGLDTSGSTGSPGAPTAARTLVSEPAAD
UniProt P25440, sequence (whole entry, unmodified, looked up): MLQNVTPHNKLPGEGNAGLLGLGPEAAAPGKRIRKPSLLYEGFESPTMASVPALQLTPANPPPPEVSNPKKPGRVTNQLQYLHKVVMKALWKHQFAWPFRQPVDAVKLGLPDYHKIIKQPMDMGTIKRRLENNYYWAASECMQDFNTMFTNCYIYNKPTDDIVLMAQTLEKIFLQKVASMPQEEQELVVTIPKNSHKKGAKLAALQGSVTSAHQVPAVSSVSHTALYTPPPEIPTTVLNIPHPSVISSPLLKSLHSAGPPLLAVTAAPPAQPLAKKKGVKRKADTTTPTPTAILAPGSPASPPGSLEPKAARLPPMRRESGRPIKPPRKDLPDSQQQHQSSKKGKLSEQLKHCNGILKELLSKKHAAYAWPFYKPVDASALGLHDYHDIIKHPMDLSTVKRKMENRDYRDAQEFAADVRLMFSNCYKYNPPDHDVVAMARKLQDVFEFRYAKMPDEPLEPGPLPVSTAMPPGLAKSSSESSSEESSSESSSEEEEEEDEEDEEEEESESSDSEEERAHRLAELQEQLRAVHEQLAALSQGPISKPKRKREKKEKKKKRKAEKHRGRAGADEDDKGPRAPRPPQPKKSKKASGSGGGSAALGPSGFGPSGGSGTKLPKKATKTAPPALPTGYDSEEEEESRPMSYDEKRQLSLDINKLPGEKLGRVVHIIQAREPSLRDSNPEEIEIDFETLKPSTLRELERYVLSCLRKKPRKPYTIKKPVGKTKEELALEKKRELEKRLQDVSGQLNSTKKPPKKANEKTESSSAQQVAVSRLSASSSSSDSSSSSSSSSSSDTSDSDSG
UniProt Q62666, sequence (whole entry, looked up): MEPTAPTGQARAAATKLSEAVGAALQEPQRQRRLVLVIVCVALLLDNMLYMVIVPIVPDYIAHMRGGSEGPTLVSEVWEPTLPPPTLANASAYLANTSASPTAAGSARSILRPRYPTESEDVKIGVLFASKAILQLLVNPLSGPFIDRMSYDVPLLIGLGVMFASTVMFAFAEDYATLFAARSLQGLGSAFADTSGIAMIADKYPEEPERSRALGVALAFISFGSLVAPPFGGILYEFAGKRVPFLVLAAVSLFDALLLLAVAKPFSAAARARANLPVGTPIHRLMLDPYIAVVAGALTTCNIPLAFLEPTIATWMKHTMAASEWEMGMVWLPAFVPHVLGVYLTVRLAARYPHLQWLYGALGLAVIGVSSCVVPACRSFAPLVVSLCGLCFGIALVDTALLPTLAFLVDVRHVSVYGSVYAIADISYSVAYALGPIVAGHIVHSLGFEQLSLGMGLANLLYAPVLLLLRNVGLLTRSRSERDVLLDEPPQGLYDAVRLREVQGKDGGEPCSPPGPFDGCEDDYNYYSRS
UniProt Q9BV23, sequence (whole entry, looked up): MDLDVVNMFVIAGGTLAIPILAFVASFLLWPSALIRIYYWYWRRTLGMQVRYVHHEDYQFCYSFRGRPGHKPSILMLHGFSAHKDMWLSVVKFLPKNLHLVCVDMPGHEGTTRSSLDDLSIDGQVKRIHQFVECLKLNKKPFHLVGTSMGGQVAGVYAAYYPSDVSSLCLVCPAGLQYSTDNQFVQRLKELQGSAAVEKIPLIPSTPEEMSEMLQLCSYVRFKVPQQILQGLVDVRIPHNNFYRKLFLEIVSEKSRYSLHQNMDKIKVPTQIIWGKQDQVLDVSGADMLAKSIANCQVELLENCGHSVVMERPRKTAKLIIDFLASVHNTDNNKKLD
UniProt Q8N752, sequence (whole entry, looked up): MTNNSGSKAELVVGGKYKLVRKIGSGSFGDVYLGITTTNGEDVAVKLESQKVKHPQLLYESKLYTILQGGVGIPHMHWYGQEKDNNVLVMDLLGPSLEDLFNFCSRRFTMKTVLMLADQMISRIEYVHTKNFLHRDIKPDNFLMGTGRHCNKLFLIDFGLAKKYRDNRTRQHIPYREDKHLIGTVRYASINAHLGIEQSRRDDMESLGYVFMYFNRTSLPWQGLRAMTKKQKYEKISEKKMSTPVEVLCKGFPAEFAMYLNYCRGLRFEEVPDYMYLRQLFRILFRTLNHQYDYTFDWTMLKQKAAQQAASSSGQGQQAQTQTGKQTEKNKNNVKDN
UniProt O42275, sequence (whole entry, looked up): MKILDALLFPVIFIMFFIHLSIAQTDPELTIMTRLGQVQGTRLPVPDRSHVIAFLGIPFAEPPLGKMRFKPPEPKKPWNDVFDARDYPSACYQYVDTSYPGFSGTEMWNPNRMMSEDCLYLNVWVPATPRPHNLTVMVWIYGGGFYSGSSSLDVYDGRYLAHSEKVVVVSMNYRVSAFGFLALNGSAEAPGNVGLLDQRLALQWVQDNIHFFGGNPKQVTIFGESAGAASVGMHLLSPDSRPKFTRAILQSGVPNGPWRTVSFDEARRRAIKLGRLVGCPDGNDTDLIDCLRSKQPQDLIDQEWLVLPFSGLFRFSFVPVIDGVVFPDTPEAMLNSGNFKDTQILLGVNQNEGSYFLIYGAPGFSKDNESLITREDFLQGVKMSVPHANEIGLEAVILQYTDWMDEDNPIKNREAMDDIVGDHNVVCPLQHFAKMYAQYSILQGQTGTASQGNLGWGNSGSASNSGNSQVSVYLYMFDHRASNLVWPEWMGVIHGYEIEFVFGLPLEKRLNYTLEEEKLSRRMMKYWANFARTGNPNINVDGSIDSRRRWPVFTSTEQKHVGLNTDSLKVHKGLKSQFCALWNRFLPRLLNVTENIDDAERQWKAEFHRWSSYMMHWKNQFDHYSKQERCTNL

Structure (SMILES) | target | test | test system | setting | how to read | endpoint | result
C[C@H]1CN(c2n[nH]c3nc(N[C@H]4CC[C@H](NS(=O)(=O)CCC(F)(F)F)CC4)ncc23)CCO1 | Dual specificity protein kinase CLK2 (CLK2, Homo sapiens, UniProt P49760) | inhibitor, Kinobeads competition profiling |  | 20 µM | baseline: vehicle | relative abundance | 1.14
Cc1ccc2c(c1)C1(C=C2)CCN(C2Cc3ccccc3CC2O)CC1 (racemic) | Vesicular acetylcholine transporter (Rattus norvegicus, UniProt Q62666) |  | rat liver (sigma2) |  | baseline: Ki sigma2 over Ki VAChT | selectivity ratio | 86
CCCCC(=O)O | medium-chain acyl-CoA synthetase A461K | substrate |  |  |  | Km | 330 ± 30 µM
CN1CCN(c2cc(-c3ccncc3)c(-c3ccc4ccccc4c3)nn2)CC1 | Sphingosine 1-phosphate receptor 5 (S1PR5, Homo sapiens, UniProt Q9H228) | agonist, FLIPR |  | 12.5 µM |  | activation | 2%
O=C(c1ccc(Cl)cc1)N1CCN2C(=O)N(OC(=O)N3CCOc4ccccc43)C(=O)C2C1 (stereo not drawn) | Monoacylglycerol lipase ABHD6 (ABHD6, Homo sapiens, UniProt Q9BV23) | enzyme activity, inhibitor, MS-based ABPP | SW-620 in situ | 10 µM, 2 h, 37 °C | baseline: compound over DMSO, lower = stronger inhibition | median ratio | 0.46
Nc1ccn([C@@H]2O[C@H](COP(=O)(O)OP(=O)(O)OP(=O)(O)O)[C@@H](O)[C@H]2O)c(=O)n1 | pyrG (Escherichia coli, UniProt P0A7E5, C268A) | enzyme activity |  | together with: UTP 0.05 mM |  | Hill coefficient | 1.8 ± 0.5
COc1ccc(N2C(=O)N(c3c(C)cccc3Cl)Cc3cnc(Nc4ccc(C5CCN(C)CC5)cc4OC)nc32)nc1 | Dual specificity tyrosine-phosphorylation-regulated kinase 4 (DYRK4, Homo sapiens, UniProt Q9NR20) | kinase activity |  | 0.5 µM |  | inhibition | 3.35%
CCOC(=O)COc1ccc2c(=O)c3ccccc3oc2c1 | Acetylcholinesterase (ache, Electrophorus electricus, UniProt O42275) | enzyme activity |  | 0.84 µM, together with: substrate 6.90 mM | higher = faster reaction | reaction velocity | 0.0035 a.u.
CCNC(=O)c1ccc(-n2nc(C)cc2-c2ccccc2)cc1 | PFF0160c E182D | enzyme activity, DCIP colorimetric |  |  | baseline: E182D mutant over wild type | IC50 ratio | 2.4
COc1cc(Nc2ncc(F)c(Nc3ccc4c(n3)NC(=O)C(C)(C)O4)n2)cc(OC)c1OC | Ribosomal protein S6 kinase alpha-5 (RPS6KA5, Homo sapiens, UniProt O75582) | kinase binding, KINOMEscan |  | 10 µM, kinase domain 2 C-terminal |  | inhibition | 95%
NC(=O)c1ccc[n+]([C@@H]2O[C@H](COP(=O)(O)OP(=O)(O)OC[C@H]3O[C@@H](n4cnc5c(N)ncnc54)[C@H](O)[C@@H]3O)[C@@H](O)[C@H]2O)c1 | ALDH-137 | substrate |  |  |  | Km | 28 ± 6 µM
CC[C@@H](C)[C@@H](NC(=O)[C@@H](Cc1ccc(O)cc1)NC(=O)[C@H]1CCCN1C(=O)[C@@H](CCCNC(=N)N)NC(=O)[C@H](N)Cc1c[nH]cn1)C(=O)N[C@H](C)C(=O)N[C@H](Cc1c[nH]cn1)C(=O)N[C@H](CCCNC(=N)N)C(=O)N[C@H](CCCCNC(=O)c1cccc(S(=O)(=O)F)c1)C(=O)N[C@H](Cc1ccc(O)cc1)C(=O)N[C@H](CO)C(=O)N[C@H](Cc1ccccc1)C(N)=O | Transferrin receptor protein 1 (Tfrc, Mus musculus, UniProt Q62351) | flow cytometry | DC2.4 | 24 h, pH 6, replicate 3, unit not given | baseline: 0 h | surface TFRC expression | 0.375
Cc1cc(OC(C)C(=O)N2CCc3ccccc32)ccc1Cl (stereo not drawn) | PFF0160c E182D | enzyme activity, DCIP colorimetric |  |  | baseline: E182D mutant over wild type | IC50 ratio | 0.1
O=C(O)COP(=O)(O)O | TPI1 (Saccharomyces cerevisiae, UniProt P00942, S211G/Y208T) | enzyme activity, competitive inhibitor, GPDH/NADH-coupled |  | pH 9.3, 25 °C, ionic strength 0.1 NaCl, together with: glyceraldehyde 3-phosphate substrate | baseline: mutant over wild type | Ki ratio | 7.6
CC[C@H](CO)Nc1nc(NCc2ccc(-c3ccccn3)cc2)c2ncn(C(C)C)c2n1 | Casein kinase I isoform alpha-like (CSNK1A1L, Homo sapiens, UniProt Q8N752) | KINOMEscan competition binding |  | 10 µM, primary screen | direction not given | binding score | 2.7
COc1cc(N)c(Cl)cc1C(=O)NC1CN2CCC1CC2 (stereo not drawn) | G protein-coupled receptor 88 (Homo sapiens, UniProt Q9GZN0) | β-arrestin recruitment, TANGO luminescence, item: GPR88 |  | concentration not given | baseline: basal luminescence | log2 fold change | -0.333
c1ccc2c3c(ccc2c1)-c1cccc2cccc-3c12 | Aryl hydrocarbon receptor (Danio rerio, UniProt Q9YGV3) | reporter gene, agonist, luciferase reporter | ZF-4 | 4.572 µM | baseline: vehicle control | fold change | 2.58
O=C(Nc1cnccc1Cl)N1CCN(Cc2ccc3c(c2)OC(F)(F)O3)CC1 | somatostatin sst1 receptor |  |  | concentration not given |  | inhibition | 10% and 9%
CC(C)(Cc1c[nH]c2ccccc12)NCC(O)COc1ccccc1C#N (stereo not drawn) | ACHE |  | biochemical | concentration not given |  | activity class | inactive
N[C@@H](Cn1oc(=O)[nH]c1=O)C(=O)O | uncharacterized protein (Ixodes scapularis, UniProt A0A0N9E2I2) | L-glutamate-like response, two-electrode voltage clamp | Xenopus laevis oocytes | 100 µM |  | activity | inactive
C[N+](C)(C)[C@@H](Cc1c[nH]c(=S)[nH]1)C(=O)[O-] | Ergothioneine transport permease/ergothioneine binding protein EgtU, substrate-binding domain (egtU, Helicobacter pylori, UniProt B5Z7I3, S297F) | ITC |  | 30 °C, substrate-binding domain |  | ΔS | 22.6 ± 2.3 cal/mol/K
CC(=O)N[C@H](C(=O)N1C[C@H](O)C[C@H]1C(=O)NCc1ccc(-c2scnc2C)cc1)C(C)(C)SCCCCCCNC(=O)C[C@@H]1N=C(c2ccc(Cl)cc2)c2c(sc(C)c2C)-n2c(C)nnc21 | Bromodomain-containing protein 2, BD1 (BRD2, Homo sapiens, UniProt P25440, K107A/Q101K/V106E) | ITC |  | 25 °C, BD1 KEA mutant, binary |  | ΔG | -10.18 ± 0.06 kcal/mol
CCCN(Cc1nnc(-c2cccs2)o1)C(=O)C1COc2ccccc2O1 (stereo not drawn) | PFF0160c E182D | enzyme activity, DCIP colorimetric |  |  | baseline: E182D mutant over wild type | IC50 ratio | 1.9
CC(=O)c1cnc2ccc(-c3cc(Cl)c(O)c(Cl)c3)nc2c1N[C@H]1CC[C@H](CN(C)C)CC1 | BRI1 (Arabidopsis thaliana, UniProt O22476) | binding, SPR |  | concentration not given | baseline: FER | fold change of KD | > 100
C=C1[C@@H]2CC[C@@]3(C)[C@H](c4ccoc4)OC(=O)C[C@]13O[C@H]1CC(=O)C(C)(C)[C@H](CC(=O)OC)[C@]12C | ACHE |  | biochemical | concentration not given |  | activity class | inactive
[2H]c1c([2H])c([C@]2([2H])CCCN2C(=O)C(C)(C)Oc2ccc3cn[nH]c3c2)c([2H])c([2H])c1C([2H])([2H])[2H] | Ribosomal protein S6 kinase alpha-5, C-terminal kinase domain (RPS6KA5, Homo sapiens, UniProt O75582) | KINOMEscan |  | 1 µM | baseline: DMSO control | remaining binding | 72%
CN1CCc2[nH]c3ccccc3c2CC1.O=C(O)/C=C/C(=O)O | Neuronal acetylcholine receptor subunit alpha-7 (CHRNA7, Homo sapiens, UniProt P36544) | ion current, inhibitor, two-electrode voltage clamp | Xenopus laevis oocytes | 3 µM, human receptor, together with: acetylcholine 100 µM |  | recovery time constant | 8.8 ± 0.1 s

Repeated from above:
Structure (SMILES) | target | test | test system | setting | how to read | endpoint | result
Cc1cc(OC(C)C(=O)N2CCc3ccccc32)ccc1Cl (stereo not drawn) | PFF0160c E182D | enzyme activity, DCIP colorimetric |  |  | baseline: E182D mutant over wild type | IC50 ratio | 0.1
CCOC(=O)COc1ccc2c(=O)c3ccccc3oc2c1 | Acetylcholinesterase (ache, Electrophorus electricus, UniProt O42275) | enzyme activity |  | 0.84 µM, together with: substrate 6.90 mM | higher = faster reaction | reaction velocity | 0.0035 a.u.
